Published values gathered from unrelated publications.
Every numbered part comes from another study and shows a few of its results, in no order.

Series 1
Target: PABPC1L2, full length, GST fusion (mouse, UniProt A0ABA7IW68)
Technique: RNAcompete
Molecule type: RNA
Matrix: in vitro
Concentration: 20 nM
Setting: 7-mer, probes averaged, single round
Baseline: mean of 7-mers
Direction: higher = stronger binding
Measurement: 7-mer Z-score
Construct (chain): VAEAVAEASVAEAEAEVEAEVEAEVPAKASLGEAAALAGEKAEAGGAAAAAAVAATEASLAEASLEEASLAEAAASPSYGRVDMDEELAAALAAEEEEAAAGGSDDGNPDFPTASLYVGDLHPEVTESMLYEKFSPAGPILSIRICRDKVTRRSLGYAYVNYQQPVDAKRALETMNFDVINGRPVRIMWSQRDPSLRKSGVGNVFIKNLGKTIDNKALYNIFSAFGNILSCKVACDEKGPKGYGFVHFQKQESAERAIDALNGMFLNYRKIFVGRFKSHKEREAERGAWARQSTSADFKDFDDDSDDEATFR
CGUGUAU: -0.345
AUAAUAC: 0.106
UCUGUAC: -0.298
GCUCAUU: -0.157
UGCAACG: -0.202
GCUCGGA: -0.106
AACCAGC: -0.0047
GUAUUUU: -0.342
CGACACG: -0.0482
ACACUAU: -0.0391
GCAGGAU: 0.206
GGACGGG: 0.336
UGACGAA: 0.131
GCCUGGC: -0.213
AAGCGGA: 0.419
ACUAGCG: -0.119
AAGCAAU: 0.218
ACGCGUG: -0.233
AACUUUA: 0.233
CCCCGAA: -0.0391
CGGUGGG: -0.0174
AGAUCGA: -0.204
AUGUAGC: -0.162
GGAGCCA: 0.0623

Series 2
Target: Ras GTPase-activating protein-binding protein 1, RRM domain (G3BP1, Homo sapiens, UniProt Q13283)
Sequence of UniProt Q13283 (whole entry, looked up): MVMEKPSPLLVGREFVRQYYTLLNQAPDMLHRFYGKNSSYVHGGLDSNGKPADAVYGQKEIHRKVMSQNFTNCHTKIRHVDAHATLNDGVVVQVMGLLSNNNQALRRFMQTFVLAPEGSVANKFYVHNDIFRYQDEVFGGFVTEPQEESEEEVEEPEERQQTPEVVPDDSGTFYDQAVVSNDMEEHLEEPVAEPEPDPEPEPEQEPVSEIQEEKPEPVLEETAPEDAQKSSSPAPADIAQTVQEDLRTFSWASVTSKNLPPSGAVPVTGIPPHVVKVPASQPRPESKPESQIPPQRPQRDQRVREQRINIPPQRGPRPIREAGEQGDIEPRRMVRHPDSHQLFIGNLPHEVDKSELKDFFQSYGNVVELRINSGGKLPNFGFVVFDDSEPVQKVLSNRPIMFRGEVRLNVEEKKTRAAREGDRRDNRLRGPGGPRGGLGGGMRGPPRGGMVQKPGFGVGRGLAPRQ
Technique: RNA Bind-n-Seq
Molecule type: RNA
Matrix: in vitro
Concentration: 1 µM
Setting: whole 134-nt RNA, ends assumed
Added: 150 mM KCl
Baseline: input library
Direction: higher = stronger binding
Measurement: log2 enrichment
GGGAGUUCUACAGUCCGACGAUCCCUGUGCUACACAUCGUAUGUACCGAAUCGGGGAAAAAAAGGGGUUUUUUUGGGGUGGGGAAAGUAUUAUGUUACGCCGUUCGGAUCUGCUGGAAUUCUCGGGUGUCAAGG: 0.53
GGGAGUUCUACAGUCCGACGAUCUCAAGUCCUGUGCUACACAUCGUAUGUACCGAAUCGGUGGAAAAAAAGGUUUGGAAAGUAUUAUGUUACGCCGUUCGGAUCUGCACUUCCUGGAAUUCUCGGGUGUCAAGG: -0.199
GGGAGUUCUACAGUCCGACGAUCCUCAAGUCCUGUGCUACACAUCGUAUGUACCGAAUCGGGCGGGCGGGGCGGGGAAAGUAUUAUGUUACGCCGUUCGGAUCUGCACUUCCAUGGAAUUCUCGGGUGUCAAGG: 1.15
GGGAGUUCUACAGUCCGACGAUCUGGGAGGUGGAUUUUGUUUAUUUUUAUAGCUCAUUUCCAGGGGUGGGAAUUUUUUUUUAAUAUGUGUCAUGAAUAAAGUUGUUUUUGAAAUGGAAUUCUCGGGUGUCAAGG: 1.73
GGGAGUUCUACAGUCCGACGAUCAGUCCUGUGCUACACAUCGUAUGUACCGAAUCGGGGCCCCGGGCCCCGGGGCCCCGGGAAAGUAUUAUGUUACGCCGUUCGGAUCUGCACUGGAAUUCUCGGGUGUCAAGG: 0.273
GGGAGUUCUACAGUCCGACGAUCAGUCCUGUGCUACACAUCGUAUGUACCGAAUCGGGUUUGGGUUUUUGGGAAAAAGGGAAAGUAUUAUGUUACGCCGUUCGGAUCUGCACUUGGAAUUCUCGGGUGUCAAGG: 0.55
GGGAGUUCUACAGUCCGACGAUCUGGCAUGGAUCCAGUGGGCUGAGACCACCCUCAUUCAGCGGGAUCAGGAGCCAAUCCCGCAGAACAUUGACCGAGUUAAAGCCCUUAUCGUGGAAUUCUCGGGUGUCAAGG: -0.277
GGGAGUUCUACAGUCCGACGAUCCACAGACAACACGCACCCACACAGACACAGAGGGAAGGGGUUGGGAUGGGGACAGGGUGCACAGCAGGACGGGGUAGGACCCCAGCCCCUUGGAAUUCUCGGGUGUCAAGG: -0.405
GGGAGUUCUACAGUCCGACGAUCCAAGUCCUGUGCUACACAUCGUAUGUACCGAAUCGGGAAAGGGAAAGGGGAAAGGAAAGUAUUAUGUUACGCCGUUCGGAUCUGCACUUCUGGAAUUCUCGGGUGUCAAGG: -0.255

Series 3
Target: RNA binding protein fox-1 homolog 2, RRM domain, GST-SBP tag (RBFOX2, Homo sapiens, UniProt O43251-10, residues 100-194)
Technique: RNA Bind-n-Seq
Molecule type: RNA
Matrix: in vitro
Concentration: 365 nM
Setting: natural RNA segment, single round, ends assumed
Baseline: no-protein control
Direction: higher = stronger binding
Measurement: RBNS enrichment (R)
Target sequence (chain): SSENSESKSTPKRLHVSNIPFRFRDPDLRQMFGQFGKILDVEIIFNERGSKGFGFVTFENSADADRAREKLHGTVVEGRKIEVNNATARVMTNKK
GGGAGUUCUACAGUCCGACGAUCACCAUUUGGAUUUUUUUAAAACAAAAGUAUUAAUAAUCUGGAAGACAGUGUUGCCCAGGUCAGGAGUGUUUUCUUGGUGGUUCCAGCCCCCAUCAAUUGAACUGUUUCUGUGGAAUUCUCGGGUGCCAA: 0.481
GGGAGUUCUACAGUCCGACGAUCCAAAAACCACCACUUCCUGGGGAGACGUGGAUACCGUCCUCCUUGCCACCAUGGCCAGUAUGUGCAGAGCAGUACUGCAGUGUGUUCAGGGUUAGCGCCCAUGAAAGGGGUGGAAUUCUCGGGUGCCAA: 0.423
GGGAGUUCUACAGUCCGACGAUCGUGAAGAGGGCCAGGACAGAUUGGACAGCUUAUUUCUCUAUAGCAAGUAAAAGCGUUAUGUUACAGUAAUUAACAGACCUACUGGGCCCAGGGGAAAAAAAGAAAUGAAUUGGAAUUCUCGGGUGCCAA: 0.662
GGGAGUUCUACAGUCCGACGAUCGAGAGAGAACAUCUCUCCGGACCCCCUGACUCAGAGCCUCGUGGCCCGGCAUCCCUUAGCCUCUAUAGCAGUGUGCUCAAAAGCCCUGGCUCAACAAAGCACAUCUUCACUGGAAUUCUCGGGUGCCAA: 0.178
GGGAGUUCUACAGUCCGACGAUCGGAGUGGCCACACCGCCUGUUGGAGAGGUCACUGAAAAAGACAUCACUGCAGAAGCAACUCCUGCACUCGCCCAGACUUUACCAGGGGGCAAAGAUGCCCAUGACGACAUUGGAAUUCUCGGGUGCCAA: 0.368
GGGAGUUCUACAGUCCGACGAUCCGCUGUCCUGGUGGUAUUUACAAUGACAUCCUCCUCCUCCAUCACUCCAGGGGUGGUGUCUCGGCCGCCCCUACCAGCUGGCUGAGCCCCCUGGCCUCCUGCGCUCCCUCUGGAAUUCUCGGGUGCCAA: 0.314
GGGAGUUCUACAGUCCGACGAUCGUCUCCUCCCUUCCACCUUUCUCCUUGCAUUGUGAUGAUCUAGUAGGCACGUCUGUCAACAGGACACAUGCCUCCUCUGACUAUAACCUCUUAAUAGUUGUGUAUAAUGAUGGAAUUCUCGGGUGCCAA: 0.364
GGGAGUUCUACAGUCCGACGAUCUUACAGCUUCCUCUGGGAGGUCGUGUAGACCCAGUGGGCAAGCAGGACAAGGGCCCAGAACUGAAACUUGAUCUUAAAAUUUACCAUGGAAAUGAGGUCUUAGGCUCUUCUGGAAUUCUCGGGUGCCAA: 0.244

Series 4
Organism: Saccharomyces cerevisiae
Effect on: binding
Technique: yeast competitive growth sequencing
Molecule type: peptide
Strain: cyclin A1-Cln2 strain
Matrix: peptide tiling library
Setting: pooled screen
Direction: direction not given
Measurement: enrichment score
PKRAKRKLYTSEISSP: 0.1
SSEVARHLLFQSHM: -1.02
VLVRTSACRSLFGPVD: -2.26
IVLICAKRSLCAAFSV: -1.18
PARRRLRLSVDEVSSP: -0.526
KPKPVKPVTFSTGIKM: 0.982
PAKRRLELGE: 0.417
TARRIFQEPTEPKTKA: -1.02

Series 5
Target: Histone acetyltransferase KAT6A, winged helix 1, GST fusion (KAT6A, Homo sapiens, UniProt Q92794, residues 1-85)
Technique: protein binding microarray
Molecule type: double-stranded DNA, one strand shown
Matrix: in vitro
Concentration: not given
Setting: 8-mer, flanks averaged, mean of 2 arrays, mostly near background
Baseline: not given
Direction: higher = stronger binding
Measurement: E-score
Construct (chain): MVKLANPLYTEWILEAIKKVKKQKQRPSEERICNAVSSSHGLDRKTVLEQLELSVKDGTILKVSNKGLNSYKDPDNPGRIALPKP
AACGAAAT: -0.0758
ATAGGTCC: -0.0182
CCTGGACA: -0.208
GAAGTAAA: -0.236
AAGAAATG: -0.234
CGTTCAAG: -0.018
AATGTAGC: -0.121
ACGAACGA: -0.0578
GCCTGGAA: -0.246
AGTGCTTC: -0.219
AAGTATTA: -0.215
CCCAGTAA: -0.0424
ATAAATAC: -0.141
AGTGCTGG: -0.162
AAATCTAT: -0.094
AAATGTGG: -0.198
AACCCTGT: -0.169
AAACGTGC: -0.119
CTGAGCCA: 0.00169
CATATACA: -0.0938
ATTAACCG: 0.204
AAACAACT: -0.193
GCTTACAC: 0.00131
CATGGCGC: 0.357
CAGGAACC: -0.199

Excerpt of the above (series 5):
CATATACA: -0.0938
CATGGCGC: 0.357
GAAGTAAA: -0.236
CCTGGACA: -0.208
GCTTACAC: 0.00131
CGTTCAAG: -0.018
AATGTAGC: -0.121
ATAAATAC: -0.141
AAACGTGC: -0.119
AAACAACT: -0.193
AGTGCTGG: -0.162
